Results of several laboratories.
Each line is one published result; not all experiments were run side by side. Several values in a cell are separate wells, animals, samples, runs or records.

C#Cc1c(F)ccc2cc(O)cc(-c3ncc4c(N5CC6CCC(C5)N6C(=O)OC(C)OC(=O)C5CCOC5)nc(OC[C@@]56CCCN5C[C@H](F)C6)nc4c3F)c12 (stereo partly shown)  remaining prodrug (simulated gastric fluid; 1 µM, 30 min, 37 °C): 108%
C[C@H](NC(=O)CNC(=O)[C@@H]1CCCN1C(=O)[C@H](CO)NC(=O)CNC(=O)[C@H](CO)NC(=O)[C@H](C)NC(=O)[C@H](CC(N)=O)NC(=O)[C@H](C)NC(=O)[C@H](CO)NC(=O)[C@H](C)NC(=O)[C@H](CO)NC(=O)[C@@H]1CCCN1C(=O)[C@H](Cc1ccccc1)NC(=O)[C@H](C)NC(=O)[C@H](CO)NC(=O)[C@@H]1CCCN1C(=O)[C@H](Cc1ccccc1)NC(=O)[C@@H](NC(=O)[C@H](CC(=O)O)NC(=O)[C@@H](N)CO)[C@@H](C)O)C(=O)N[C@@H](CCCNC(=N)N)C(=O)N[C@@H](CO)C(=O)O  remaining peptide (CHO-K1 culture medium; 20 min): 1.03%
CCCCCCCCCCCC(=O)C(C)C(=O)N1CCC[C@H]1C(=O)NC(C)(C)C(=O)NC(C)(C)C(=O)NC(C)(C)C(=O)N[C@](C)(CC)C(=O)NCCC(=O)N[C@@H](C)C(=O)N[C@](C)(CC)C(=O)N[C@@H](C)C(=O)N[C@@H](CC(C)C)C(=O)N[C@](C)(CC)C(=O)NCCC(=O)N[C@@H](C)C(=O)N[C@](C)(CC)C(=O)NCCC(=O)N[C@@H](C)C(=O)NC(C)(C)C(=O)NC(C)(C)C(=O)NC(C)(C)C(=O)N[C@@H](C)C(=O)N[C@@H](CC(=O)O)C(=O)O (stereo partly shown)  remaining intact peptide (LC-MS; 50% pooled human serum; 40 µM, 720 min, pH 7.5, 37 °C; reference: 0 h): 28.2% and 28.5% and 25.2%
CC[C@H](C)[C@H](NC(=O)[C@@H](NC(=O)[C@H](CCCCN)NC(=O)[C@@H](NC(=O)[C@@H]1CCCN1[C@@H]1CN(C(=O)[C@@H](NC(=O)[C@@H](NC(=O)[C@@H](NC(=O)[C@@H](NC(=O)[C@@H](NC(=O)[C@@H](N)CCCCN)C(C)C)C(C)C)C(C)C)[C@@H](C)CC)[C@@H](C)O)CC[C@H]1NS(=O)(=O)c1ccc(C)cc1)[C@@H](C)O)C(C)C)C(=O)N[C@@H](CC(C)C)C(=O)N[C@@H](Cc1c[nH]cn1)C(N)=O  remaining intact peptide (LC-MS; pronase digest; 200 µM, 10 min, pH 7.5, 37 °C, together with: pronase 2.5 µg/mL): 100%
CC[C@H](C)[C@H](NC(=O)[C@H](Cc1ccccc1)NC(=O)[C@H](CCC(=O)O)NC(=O)[C@H](CCCCN)NC(=O)[C@H](C)NC(=O)[C@H](C)NC(=O)[C@H](CCC(N)=O)NC(=O)CNC(=O)[C@H](CCC(=O)O)NC(=O)[C@H](CC(C)C)NC(=O)[C@H](Cc1ccc(O)cc1)NC(=O)[C@H](CO)NC(=O)[C@H](CO)NC(=O)[C@@H](NC(=O)[C@H](CC(=O)O)NC(=O)[C@H](CO)NC(=O)[C@@H](NC(=O)[C@H](Cc1ccccc1)NC(=O)[C@@H](NC(=O)CNC(=O)[C@H](CCC(=O)O)NC(=O)C(C)(C)NC(=O)N(N)Cc1c[nH]cn1)[C@@H](C)O)[C@@H](C)O)C(C)C)C(=O)N[C@@H](C)C(=O)N[C@@H](Cc1c[nH]c2ccccc12)C(=O)N[C@@H](CC(C)C)C(=O)N[C@H](C(=O)N[C@@H](CCCNC(=N)N)C(=O)NCC(=O)N[C@@H](CCCNC(=N)N)C(=O)NCC(=O)O)C(C)C  remaining peptide (HPLC-UV; Tris-HCl buffer; 0.1 mmol/l, 24 h, pH 7.4, 37 °C): > 96%
C=CCN1CCC23c4c5ccc(OC(=O)c6ccccc6)c4OC2C(=O)CCC3(O)C1C5 (stereo not shown)  remaining compound (rat plasma; 0 h, no inhibitor): 95.4% and 95.8% and 109%
Cc1nnc(-c2ccc(CC(=O)NCCCC[C@H](NC(=O)c3ccc(OCc4ccc(B(O)O)cc4)c(-c4nc5ccccc5c(=O)[nH]4)c3)C(=O)NCC(=O)NCC(=O)NCC(=O)N[C@@H](Cc3ccccc3)C(=O)N[C@@H](Cc3ccccc3)C(=O)O)cc2)nn1  remaining compound (UPLC-MS/MS; human serum; 100 µM, 1.5 h, 37 °C): 79.8% and 85.1%
Cc1cc(-c2ccc3ccccc3c2)nnc1NCCN1CCN(C)CC1  remaining compound (human liver microsomes; 20 min): 96.6%
C=CCN1CCC23c4c5ccc(OC(=O)c6ccc(N)cc6)c4OC2C(=O)CCC3(O)C1C5 (stereo not shown)  remaining compound (rat plasma; 1 h, no inhibitor): 0.3% and 0.317%
C#Cc1c(F)ccc2cc(O)cc(-c3ncc4c(N5CC6CCC(C5)N6C(=O)OC(C)OC(=O)CCCCCCC)nc(OC[C@@]56CCCN5C[C@H](F)C6)nc4c3F)c12 (stereo partly shown)  remaining prodrug (simulated gastric fluid; 1 µM, 30 min, 37 °C): 109%
